# Measured values of several laboratories.
# Parts stem from different laboratories: compare values within a part only.

# Study 1
# Target: Interferon regulatory factor 5, full length, phosphomimetic (IRF5, Homo sapiens, UniProt Q13568-2, residues 1-514, K96S/S451D/S453D/S456D/S462D)
# Technique: protein-binding microarray
# Molecule type: double-stranded DNA, one strand shown
# Medium: in vitro
# Tested at: 250 nM
# Notes: 60-bp whole probe
# With: salmon DNA 0.4 mg/ml
# Reference: random background probes
# Reading: higher = stronger binding
# Constant ends, left off below: GCCTAGCAC … GTCTTGATTCGCTTGACGCTGCTG
Strand,log fluorescence
GACGCACTGGGGTATCGAGACGTGCTA,0.0409 z-score
GACGATATCGGGTTTCGACACGTGCTA,4.37 z-score
GCTTCTACACAGAGCATGGGGTGCTAG,-0.266 z-score
TTAGGTCTCGGTATGGGTTAGTGCTAG,0.687 z-score
TTAGGACTGGGGTATCGGTTGGTGCTA,1.57 z-score
TCATTTCTCAAATGTTTTACTGTGCTA,1.26 z-score
TTAGGACTGCTATTCCTTTAGTGCTAG,-0.223 z-score
GCAGGAGAGACAGAAGTTATGTGCTAG,-0.386 z-score
TCATTTCCAATTCTCTTACTGTGCTAG,1.24 z-score
GACGGACTGGACTATCGCGACGTGCTA,-0.388 z-score
GATGGTCTCCTTCTCCTGACGTGCTAG,-0.235 z-score
TTAGGTTTCGACACTGGGGTAGTGCTA,5.83 z-score
TCATTTCTATTTTCTGAACTGTGCTAG,2.75 z-score
TTAGGTTTGGGTCTCGGTTAGTGCTAG,0.268 z-score
TCATGTTTCTACTGTCTGACTGTGCTA,1.57 z-score
GACCGACTGGGACTGGGGACGTGCTAG,-0.498 z-score

# Study 2
# Target: TAR DNA-binding protein 43, full length, His tag (TARDBP, Homo sapiens, UniProt Q13148, residues 1-414)
# Technique: RNA Bind-n-Seq
# Molecule type: RNA
# Medium: in vitro
# Tested at: 20 nM
# Notes: 6-mer, flanks averaged, single round
# With: 150 mM KCl
# Reference: input library
# Reading: higher = stronger binding
Strand,6-mer enrichment (R)
UAGGAU,0.743
CAUCCG,0.636
CUGUUU,0.655
GUUGAC,0.777
GGCUGU,1.41
AAAUCC,0.577
AUGACG,0.898
AAUCUG,0.629
AAACGU,0.603
GCAUAG,0.956
UACGGA,0.861
UCAUCG,0.592
CGGAGA,1.47
AGCUAG,0.862
AGGCGC,1.38
UAACAC,0.64

# Study 3
# Target: Histone acetyltransferase KAT6A, both winged helices, GST fusion (KAT6A, Homo sapiens, UniProt Q92794, residues 1-181)
# Technique: protein binding microarray
# Molecule type: double-stranded DNA, one strand shown
# Medium: in vitro
# Tested at: not given
# Notes: 8-mer, flanks averaged, mean of 2 arrays, mostly near background
# Reference: not given
# Reading: higher = stronger binding
# Construct (chain): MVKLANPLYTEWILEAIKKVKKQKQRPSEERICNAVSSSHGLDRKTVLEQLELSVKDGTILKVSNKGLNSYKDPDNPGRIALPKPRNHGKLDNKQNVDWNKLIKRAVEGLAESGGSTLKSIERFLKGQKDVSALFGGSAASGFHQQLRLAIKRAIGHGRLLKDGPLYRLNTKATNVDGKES
Strand,E-score
CAGCATGC,0.109
ATAGAAAT,-0.0573
CAGGCCCG,0.176
GCTAATCA,0.0279
ACAGATAA,-0.127
AATGCCTG,-0.212
TCCGCGGA,0.314
CGTACGCA,0.262
CCCTCCCG,0.0664
AGATCAGC,0.0292
CATATACC,0.0233
ATTGCAGA,-0.0931
AATTCCTG,-0.0171
CACTCCGA,0.0344
CGGGTCTA,0.157
AAGGTTTG,-0.118
AGATATAA,-0.0986
GAGAACAC,-0.135
ACAACAGG,-0.0927
AGCCGTAA,0.277
AGGTACTG,-0.141
CGTCTCAG,-0.0758

# Study 4
# Target: RNA binding protein fox-1 homolog 2, RRM domain, GST-SBP tag (RBFOX2, Homo sapiens, UniProt O43251-10, residues 100-194)
# Technique: RNA Bind-n-Seq
# Molecule type: RNA
# Medium: in vitro
# Tested at: 365 nM
# Notes: natural RNA segment, single round, ends assumed
# Reference: no-protein control
# Reading: higher = stronger binding
# Constant ends, left off below: GGGAGUUCUACAGUCCGACGAUC … UGGAAUUCUCGGGUGCCAA
# Target sequence (chain): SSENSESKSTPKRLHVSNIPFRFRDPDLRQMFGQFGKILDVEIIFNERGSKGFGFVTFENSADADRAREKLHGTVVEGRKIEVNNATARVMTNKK
Strand,RBNS enrichment (R)
AGUGUAAAAUUUAAUUCAAAAUGGUGGCUAUAAUCACUACAGAUAAAUUUCAUACUCUUUUGUCUUUGGAGAUUCCAUUGUGGACAGUAAUACGCAGUUACAGGGUGUAG,0.361
ACUGAGUCUGCAGCGGGGGAGUGAACAAGUGUGCAGAUGUAAGUUCUUACAUGAUAAGCAGAUUGAAUACAACACCAGCAGCUUGCCUUAGAAAAGGAGAAAGGAAUUCC,0.4
GGAGUGAGAUGUUUUUCUAUAUUUUAGAACUAUUUUUGGAUAAAUUAUAUAUUUUCCUUCCUGAUUGAAUCAUCAUCACUCCCUGUAACUAGCGAAAACCACCAGUCCAG,0.375
CUCUGGCUUGGGCCGGGCGUGGUGGCUCACACCUGUAAUCCCAACACUUUGGGAGGCCAAGGCAGGUAGAUCACUUGAUGCCAGGAGUUCCAGACCAGGCUGGCCGACAU,0.228
AUGUCCCUUUCAGAGACAGCUGAUACUUCAUUUAAAAAAAUCACAAAAAUUUGAACACUGGCUAAAGAUAAUUGCUAUUUAUUUUUACAAGAAGUUUAUUCUCAUUUGGG,0.576
AUUGUUUGCUUAAACUUUGAAGAAAUAUGUGCCUCAGCUUAGAUGUUUUGUCUUCCCCUUUCUGCACUUAAAUACCUGACAGCCUGUUCGAUCGCUGUGCCUCCGAGGGC,0.789
AAGUAUUGUACCUUCAGCGUGCAGUAUCUGUGAACUGAUUUCUCCAAGUGUGAGCUUUCUGAGCAAGGGGAUUUUUUUGCUUCAGAGAAGUAAGUGUCUGUCCGUUUUCA,0.426
UAGAAAAUUUGUUAUUUUGCAACCUCGCUGGACUCUCAGUCUCUGAGCAGUGAAUGAUUCAGUGUUAAAUGUGAUGAAUACUGUAUUUUGUAUUGUUUCAAUUGCAUCUC,0.9

# Repeated from above (study 2):
Strand,6-mer enrichment (R)
UACGGA,0.861
CUGUUU,0.655
AGCUAG,0.862
AAUCUG,0.629
AUGACG,0.898
AAAUCC,0.577
GUUGAC,0.777
CGGAGA,1.47
UCAUCG,0.592
UAACAC,0.64
